Published values collected from several papers.
Each line is one published result; not all experiments were run side by side.
Chain of UniProt Q00535 (whole entry, looked up): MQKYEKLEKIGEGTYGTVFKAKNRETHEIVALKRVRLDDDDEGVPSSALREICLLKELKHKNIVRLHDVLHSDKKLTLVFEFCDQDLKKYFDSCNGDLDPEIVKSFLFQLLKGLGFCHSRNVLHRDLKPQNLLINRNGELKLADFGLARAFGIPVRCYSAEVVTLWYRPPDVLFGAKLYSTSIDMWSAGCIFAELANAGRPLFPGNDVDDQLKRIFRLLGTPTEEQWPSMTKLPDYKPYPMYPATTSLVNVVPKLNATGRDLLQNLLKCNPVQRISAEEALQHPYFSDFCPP

With `CC1(C)[C@H](NC(=O)/C(=N\OC2(C(=O)O)CC2)c2nsc(N)n2)C(=O)N1OS(=O)(=O)O` the MIC was at most 0.03 µg/mL (Providencia rettgeri; agar dilution; ATCC 31052, susceptible).
The MIC of `C=CCOC(=O)[C@]12CS[C@H](c3ccccc3)N1C(=O)/C(=C(O)/C=C/c1ccccc1)C2=O` is reported as 7.81 µg/mL (Streptomyces; bacterial growth, broth dilution; Mueller-Hinton broth; 24 h, 35 °C).
`COC1CN([C@H]2CC[C@H]([C@@]3(C)Oc4c(Cl)cc(C(=O)NCc5c(SC)cc(C)[nH]c5=O)c(C)c4O3)CC2)C1` — result for “log2 fold change”: 0.148 (RNA-seq, measured: TREM2 mouse homolog; mouse, HT-1376 xenograft, whole blood; dose not given; reference: vehicle).
`C=CC(=O)Nc1cccc(Cn2ncc3cnc(Nc4cnn(CCOC)c4)nc32)c1` — result for “percent of control”: 100% (MST3 human; binding, KINOMEscan; 100 nM; lower = stronger binding).
For `O=C1C(=C(O)NC2CCCCC2)C(=O)C2(C(=O)OCc3ccc(Br)cc3)CSC(c3ccccc3)N12` (stereo not drawn), the MIC was 125 µg/mL (Streptomyces; bacterial growth, broth dilution; Mueller-Hinton broth; 24 h, 35 °C).
The MIC of `CC(C)(O/N=C(\C(=O)N[C@@H]1C(=O)N(OS(=O)(=O)O)C1(C)C)c1nsc(N)n1)C(=O)O` is reported as 32 µg/mL (Citrobacter freundii; agar dilution; ATCC 43864, susceptible).
`CNC(C)C1CCC(N)C(OC2C(N)CC(N)C(OC3OCC(C)(O)C(NC)C3O)C2O)O1` (stereo not drawn) has an MIC of 1 µM (Salmonella enterica serovar Typhimurium; 7731, Mueller-Hinton broth; 18 to 20 h, 37 °C).
With `C=CCO/N=C(\C(=O)N[C@@H]1C(=O)N(OS(=O)(=O)O)C1(C)C)c1csc(N)n1` the MIC was at most 0.03 µg/mL (Providencia rettgeri; agar dilution; ATCC 31052, susceptible).
`Cc1nn(-c2cccc(N)c2)c(=O)c2cnc(Nc3ccc(N4CCNCC4)cc3)nc12` gave an IC50 of 3.63 µM (Cyclin-dependent kinase 5, with p35 (CDK5, Homo sapiens, UniProt Q00535); enzyme activity, inhibitor).
With `CC1C=CC=CC(C)C2C=CC3CC(C)(O)C(Cl)C(C)C3C2C(=O)C(Cl)(Cl)C(=O)C(C)C(=O)O1` (stereo not drawn) the MIC was 0.1 µg/mL (Staphylococcus aureus; MRSA clinical isolate; resistant: OXA,DOX,TET).
For `Nc1ncc(-c2cc(-c3cnn(CC(F)(F)F)c3)ncc2F)nc1C(=O)NC1CNCC(F)C1` (stereo not drawn), the remaining binding was 71% (PIP5K2C; KINOMEscan; 1 µM; reference: DMSO control).
For `CN1CCCNC(=O)c2cccc(c2)C(=O)NCCCN(C)CCCNc2cccc3c2C(=O)c2cccc(c2C3=O)NCCC1`, “log2 fold change” read 0.398 (SAS; RNA-Seq, measured: SSU72 mRNA; 1 µM, 6 h; reference: untreated cells).
`O=C1C(=C(O)NC2CCCCC2)C(=O)C2(C(=O)OCc3ccccc3)CSC(c3ccccc3)N12` (stereo not drawn) has an MIC of 15.6 µg/mL (Streptomyces; bacterial growth, broth dilution; Mueller-Hinton broth; 24 h, 35 °C).
`Cc1ncsc1-c1ccc(C(C)NC(=O)C2CC(O)CN2C(=O)C(NC(=O)CCCCCCCCCCN2CCCC(Nc3ncc(Cl)c(Nc4ccccc4S(=O)(=O)C(C)C)n3)C2)C(C)(C)C)cc1` (stereo not drawn) — result for “log2 fold change”: -1.29 (22Rv1; RNA-seq, measured: ZCCHC14 mRNA; concentration not given; reference: DMSO).
The MIC of `N=C(N)NCCC[C@@H]1NC(=O)[C@H](CCCNC(=N)N)NC(=O)[C@@H](CCCNC(=N)N)NC(=O)[C@@H](CCCNC(=N)N)NC(=O)[C@@H](C(c2ccccc2)c2ccccc2)NC(=O)[C@@H](Cc2c[nH]c3ccccc23)NC(=O)[C@@H](C(c2ccccc2)c2ccccc2)NC1=O` is reported as 32 µg/mL (Candida albicans; SC5314).
`O=C1C(=C(O)NC23CC4CC(CC(C4)C2)C3)C(=O)C2(C(=O)OCc3ccccc3)CSC(c3ccccc3)N12` (stereo not drawn) gave an MIC of 31.3 µg/mL (Streptomyces; bacterial growth, broth dilution; Mueller-Hinton broth; 24 h, 35 °C).
The MIC of `C#CCO/N=C(\C(=O)N[C@@H]1C(=O)N(OS(=O)(=O)O)C1(C)C)c1nsc(N)n1` is reported as at most 0.03 µg/mL (Providencia rettgeri; agar dilution; ATCC 31052, susceptible).
`Cc1c(CN(C)C(=O)/C=C/c2cnc3c(c2)CC(N)C(=O)N3)oc2ccccc12` (stereo not drawn) has an MIC of 32 µg/mL (Acinetobacter baumannii; broth microdilution; AR-0313).

Some of these lines once more:
The MIC of `C=CCOC(=O)[C@]12CS[C@H](c3ccccc3)N1C(=O)/C(=C(O)/C=C/c1ccccc1)C2=O` is reported as 7.81 µg/mL (Streptomyces; bacterial growth, broth dilution; Mueller-Hinton broth; 24 h, 35 °C).
With `C=CCO/N=C(\C(=O)N[C@@H]1C(=O)N(OS(=O)(=O)O)C1(C)C)c1csc(N)n1` the MIC was at most 0.03 µg/mL (Providencia rettgeri; agar dilution; ATCC 31052, susceptible).
